Assay results gathered from unrelated publications.
Every numbered part comes from another study and shows a few of its results, in no order. Substitutions count along the parent as printed.

Study 1 — target: CCND2, cyclin fold, Cln2 fusion (human); method: yeast growth competition, sequencing; medium: yeast; notes: weak parent motif; relative to: not given; direction: higher = stronger binding
Starting sequence: MASTL docking peptide (human); PMIAKNLMCELDE; partner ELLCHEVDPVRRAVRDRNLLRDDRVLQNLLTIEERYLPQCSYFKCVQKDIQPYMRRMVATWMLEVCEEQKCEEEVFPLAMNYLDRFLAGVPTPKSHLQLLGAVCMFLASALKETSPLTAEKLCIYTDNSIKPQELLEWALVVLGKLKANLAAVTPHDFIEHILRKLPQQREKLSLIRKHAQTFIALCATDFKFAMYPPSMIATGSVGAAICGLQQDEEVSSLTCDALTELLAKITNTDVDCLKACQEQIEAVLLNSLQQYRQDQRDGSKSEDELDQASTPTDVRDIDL
Under “normalised enrichment score”, `PMIAKNLMCELRE [D12R]` is recorded as 0.0912.
`PMIAKNLMCELYE [D12Y]` — result for “normalised enrichment score”: -0.412.
`PMIAPNLMCELDE [K5P]` — result for “normalised enrichment score”: -0.0856.
`PMIAKNPMCELDE [L7P]`: “normalised enrichment score” -0.139.
`PMIAKNLPCELDE [M8P]`: “normalised enrichment score” 0.212.
`PRIAKNLMCELDE [M2R]`: “normalised enrichment score” 0.143.
`PYIAKNLMCELDE [M2Y]`: “normalised enrichment score” 0.325.
Under “normalised enrichment score”, `PMIAKNLMCEDDE [L11D]` is recorded as 0.0638.
Under “normalised enrichment score”, `PMFAKNLMCELDE [I3F]` is recorded as 0.000169.
Under “normalised enrichment score”, `PMILKNLMCELDE [A4L]` is recorded as -0.22.
Under “normalised enrichment score”, `PMIAKNLMCEFDE [L11F]` is recorded as -0.265.
`PMIAKNLDCELDE [M8D]` — result for “normalised enrichment score”: -0.0899.
`PMIAKNLMTELDE [C9T]` — result for “normalised enrichment score”: 0.0779.
For `PMIAKNLYCELDE [M8Y]`, “normalised enrichment score” read -0.192.
Under “normalised enrichment score”, `PMIAKCLMCELDE [N6C]` is recorded as 0.459.
`PMIAKNLCCELDE [M8C]`: “normalised enrichment score” -0.222.
`PMIAKNLMCELGE [D12G]`: “normalised enrichment score” 0.211.
Under “normalised enrichment score”, `PMQAKNLMCELDE [I3Q]` is recorded as -0.104.
`PMIAKNLMCQLDE [E10Q]`: “normalised enrichment score” 0.367.
Under “normalised enrichment score”, `PMIAKNRMCELDE [L7R]` is recorded as -0.00349.
Under “normalised enrichment score”, `PMYAKNLMCELDE [I3Y]` is recorded as 0.295.
`PMIAKNLECELDE [M8E]` — result for “normalised enrichment score”: 0.204.
`PMIAKNLMRELDE [C9R]`: “normalised enrichment score” 0.232.
`PWIAKNLMCELDE [M2W]` — result for “normalised enrichment score”: -0.0209.
`PMIAKNLQCELDE [M8Q]`: “normalised enrichment score” 0.133.

Study 2 — method: protein-binding microarray; form: double-stranded DNA, one strand shown; medium: in vitro; concentration: 250 nM; notes: 60-bp whole probe; with: salmon DNA 0.4 mg/ml; relative to: random background probes; direction: higher = stronger binding; all sequences stand within: GCCTAGCAC … GTCTTGATTCGCTTGACGCTGCTG
Target: Interferon regulatory factor 5, full length, phosphomimetic (IRF5, Homo sapiens, UniProt Q13568-2, residues 1-514, K96S/S451D/S453D/S456D/S462D)
`GGATGAGTCACTTCTGGTGCTGTGCTA` gave a log fluorescence of -0.0707 z-score.
`GACGATTTCAGAGTGGAGACGTGCTAG` gave a log fluorescence of 0.125 z-score.
`TTAGGTATACTTCTCCTTTAGTGCTAG` has a log fluorescence of 0.128 z-score.
`GACGGACTGGGGACTGGGGATGTGCTA` gave a log fluorescence of -0.545 z-score.
For `GACGGTATCGGGTATCAGGACGTGCTA`, the log fluorescence was 3.24 z-score.
The log fluorescence of `CCCTGTCTGTCCAGAAACCCGTGCTAG` is reported as -0.227 z-score.
The log fluorescence of `TCACTTCTGGATTTTTTACTGTGCTAG` is reported as 0.777 z-score.
For `TCATGTCTGTTTCCTCTTACTGTGCTA`, the log fluorescence was 1.1 z-score.
For `TCATCTTTTATGCTCTTACTGTGCTAG`, the log fluorescence was 0.772 z-score.
With `GACGGTCTCCTTTTTCTGACGTGCTAG` the log fluorescence was 0.323 z-score.
`GACGAACTGAGACTGGAGCCGTGCTAG` has a log fluorescence of -0.379 z-score.
For `TTCTGAATGCCCTCTAACTTCGTGCTA`, the log fluorescence was 0.413 z-score.
`AGGGGACTGACTCTTCAGCACGTGCTA` gave a log fluorescence of -0.162 z-score.
`GAAGGTCTCGGTATCGGGACGTGCTAG` gave a log fluorescence of 1.17 z-score.
For `TTAGGTCTCGACACTGGGTTAGTGCTA`, the log fluorescence was -0.423 z-score.
With `TTAGGTTTCGGTTCCGGTAAGTGCTAG` the log fluorescence was 10.6 z-score.
The log fluorescence of `TCAAGTTTTTATTTTCTACTGTGCTAG` is reported as 2.11 z-score.
For `TCAGATCTCAGTTTCGATTAGTGCTAG`, the log fluorescence was 9.4 z-score.
For `TTAGGACGGCTACTGCTTTAGTGCTAG`, the log fluorescence was -0.449 z-score.

Study 3 — method: RNA Bind-n-Seq; form: RNA; medium: in vitro; concentration: 365 nM; relative to: no-protein control; direction: higher = stronger binding
Target: RNA binding protein fox-1 homolog 2, RRM domain, GST-SBP tag (RBFOX2, Homo sapiens, UniProt O43251-10, residues 100-194)
Notes: natural RNA segment, single round, ends assumed
Residues (chain): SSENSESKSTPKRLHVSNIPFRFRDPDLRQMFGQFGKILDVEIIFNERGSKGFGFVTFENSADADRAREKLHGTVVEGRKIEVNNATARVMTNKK
For `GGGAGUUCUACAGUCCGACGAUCAAGCCCCCUCCUAUGAGGAUGAGCAAAAAUACUACUCUCUUCGCCCUGAGUUGCUUUCUGGAUCUGGGGCUUCAGGACUUGCUGCUUCAGUCAGCCUUUAUUAGCACCAAUGGAAUUCUCGGGUGCCAA`, “RBNS enrichment (R)” read 0.347.
For `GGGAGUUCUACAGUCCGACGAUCCGCACACUGGGGCCCCGGGUUCAGCCUGGCCUGCCCGUGCCCUGGUGAAUCACCUGGCUGAGCAGUUCCCCUGGAGCCCCUUCGGGAGCAGGGCUGUGUCCCAGAUGGGCUGGAAUUCUCGGGUGCCAA`, “RBNS enrichment (R)” read 0.377.
`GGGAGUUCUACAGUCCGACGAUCGCUAGGUGCCCCUUGGAUAGAUGGGUGGCCAAGCCCCCUGGCCUGAAGGCCCGUCUCUGCAUCUCUACAGUUCUCUUUGGUUUUCAUUUUUCAUUUGGCUUAGUUUAGGGUGGAAUUCUCGGGUGCCAA` — result for “RBNS enrichment (R)”: 0.744.
For `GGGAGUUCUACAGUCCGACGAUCUGAUGGGAACAAGAGUAUGAUGUGCUUGGUAUCUGGCUUUUCCCCAAGCAGUCGAUGUCAAGGUUACGACACCAGUGACAGAGCAUGGUUUGGAAAUCCUUUAUUCUCUUUGGAAUUCUCGGGUGCCAA`, “RBNS enrichment (R)” read 2.89.
Under “RBNS enrichment (R)”, `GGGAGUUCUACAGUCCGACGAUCACUUGUUCAUGAUUGUGCUCUGAACUGCAUGGGGAGUGUGGGGUGCUGCCUUGCUCGCUGUUAUAUUAAGUAGAAGGAGUUUUAGGAUAUUCGAGACAGUGCUUCUGGAGUGGAAUUCUCGGGUGCCAA` is recorded as 2.92.
Under “RBNS enrichment (R)”, `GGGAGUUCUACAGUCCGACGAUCCGAGCGGGAUCUUGAUCAUGGGGCUGGUGUAUGGAUCCACCGUCGGAUUCCGUCUGCAGAGGAGGACGUAGGGGGCCGUCACACCCACCAGGCCUCCCUGCUGUGCUUUAUGGAAUUCUCGGGUGCCAA` is recorded as 1.05.
`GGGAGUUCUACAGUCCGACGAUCUUGCUCUUGGAAAGGACAUCAGGUGUGGGCAAAGCAUCCUUGAAGCCCAGACAACACAGGCAUGGCCUGCGUGCCCUCCCAGCAUCUGCUGCGAUGGCCUCAAGGCCUCUUGGAAUUCUCGGGUGCCAA` — result for “RBNS enrichment (R)”: 0.474.
For `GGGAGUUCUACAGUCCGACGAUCUGGAAGAUCUCAGAGCCAAGUCCUUCUACUCACGAGUAGAAGGACCGUUGGCCAACAGCCCUUUCACUUACCAUCCCUGCCUCCCCCGUCCUGUUCCCUUUGACUUCAGCUGGAAUUCUCGGGUGCCAA`, “RBNS enrichment (R)” read 0.229.

Study 4 — method: DHFR PCA, deep sequencing; medium: yeast; with: (+)-ABA 1.4 µM; relative to: wild-type fitted maximum; direction: higher = stronger binding
Target: ABI1, truncated, D143A, DHFR fusion (Arabidopsis thaliana)
Notes: methotrexate growth selection, single substitutions
Starting sequence: PYL1, truncated, DHFR fusion (Arabidopsis thaliana); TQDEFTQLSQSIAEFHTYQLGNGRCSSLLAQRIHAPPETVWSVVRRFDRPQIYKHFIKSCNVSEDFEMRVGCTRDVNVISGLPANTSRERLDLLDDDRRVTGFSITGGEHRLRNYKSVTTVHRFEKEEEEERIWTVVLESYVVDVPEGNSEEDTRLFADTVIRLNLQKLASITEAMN
Under “relative binding score”, `L91F` is recorded as -2.74%.
Under “relative binding score”, `V145Q` is recorded as -24.7%.
`D48A`: “relative binding score” -2.16%.
For `S9C`, “relative binding score” read 39.7%.
Under “relative binding score”, `K168N` is recorded as 85.6%.
`N149K` — result for “relative binding score”: 7.79%.
Under “relative binding score”, `I52Q` is recorded as 42%.
For `Q7D`, “relative binding score” read 60.3%.
Under “relative binding score”, `F124G` is recorded as 30%.
For `H16L`, “relative binding score” read 2.75%.
Under “relative binding score”, `R113N` is recorded as 55.8%.
For `L93W`, “relative binding score” read 19.1%.
Under “relative binding score”, `V43P` is recorded as -9.97%.
`V136D` — result for “relative binding score”: -0.81%.
Under “relative binding score”, `L164V` is recorded as 60.7%.
`I79Q` — result for “relative binding score”: 36.8%.
For `Q19G`, “relative binding score” read 34.7%.
`T173N` — result for “relative binding score”: 4.38%.
For `A175S`, “relative binding score” read 51.1%.
`S42C`: “relative binding score” 24.4%.
`R163A` — result for “relative binding score”: 43.8%.
`T1P` — result for “relative binding score”: 53.9%.
`L94N` — result for “relative binding score”: 0.589%.
For `E14M`, “relative binding score” read 23.3%.
Under “relative binding score”, `Y115E` is recorded as -5.44%.

Other studies, line by line
`PhoQ, residues 284 288 289 292 302 303 GLASVI` has a fold induction of 4.75 (PhoP, residues 12 14 15 18 19 SMASL (Escherichia coli, UniProt P23836); Sort-seq, item: YFP reporter; E. coli; PhoQ-PhoP variant library, with: 10 µM Mg2+; relative to: high Mg2+ state, higher = stronger signaling).
